Experimental data pooled from the literature.
Protocols differ between the studies behind these lines. Numbers after ± are the reported error.

| SMILES | cell line | test | system | conditions | IC50 |
| --- | --- | --- | --- | --- | --- |
| C[C@H]1COCCN1c1nc(NCc2cccnc2C(F)(F)F)c2cccnc2n1 | HepG2 spheroids | cytotoxicity |  |  | 190 µM |
| COc1cccc2c1C(=O)c1c(O)c3c(c(O)c1C2=O)C[C@@](O)(C(=O)CO)C[C@@H]3O[C@H]1C[C@H](N)[C@H](O)[C@H](C)O1 | HeLa expressing mutant P-gp 14 | cell viability |  | 48 h | 0.128 ± 0.023 µM |
| CN(C)C(=O)c1cc2cnc(Nc3ccc(N4CCNCC4)cn3)nc2n1C1CCCC1 | patient-derived GBM lines sample A, sample B, sample C, sample D | cell viability |  | 72 h | 0.8 to 3.6 µM |
| COc1cc(C[C@H]2COC(=O)[C@@H]2Cc2ccc(O)c(OC)c2)ccc1O | neuroblastoma M2, MYCN overexpressing | cell viability, SRB |  | with: doxycycline | 3.55 µg/mL |
| CC(C)=CCOc1c2occc2cc2ccc(=O)oc12 | COLO 320 multidrug-resistant | cytotoxicity, MTT |  | 24 h, 10% fetal bovine serum | > 100 µM |
| Cc1ccc(NS(=O)(=O)c2cccc(C(=O)NC3CCN(c4ncnc5[nH]cnc45)CC3)c2)cc1 | A549-ACE2 |  |  |  | > 200 µM |
| c1csc(-c2ccc(-c3cccs3)s2)c1 | PH5CH8 | steatosis, inhibitor, high-content imaging |  |  | ~0.1 µM |
| COc1c(C)c2c(c(O)c1C/C=C(\C)CCC(=O)O)C(=O)OC2 | UMUC3 | cell proliferation | bladder cancer |  | 0.457 µM |
| CN1CCN(S(=O)(=O)c2cc([N+](=O)[O-])ccc2N(CCOS(C)(=O)=O)CCOS(C)(=O)=O)CC1 | sample DA T-ALL PDX cells | cell viability | ex vivo | 48 h, with: AKR1C3 inhibitor 1 µM, 1 h pretreatment | 6.91 µM |
| CO[C@H]1C[C@H](O[C@@H]2/C(C)=C/C[C@@H]3C[C@@H](C[C@]4(CC[C@H](C)[C@@H](C5CCCCC5)O4)O3)OC(=O)[C@@H]3C=C(C)/C(=N/O)[C@H]4OC/C(=C\C=C\[C@@H]2C)[C@]43O)O[C@@H](C)[C@@H]1O | CAR-luc cells |  |  |  | 21.6 ± 1.3 µM |
| Cc1cc(O)c2c(c1)C(=O)C=CC2=O | HFF-1 | cytotoxicity, MTT |  | 48 h | 4.7 µM |

For quick reference, copied from above:
| SMILES | cell line | test | system | conditions | IC50 |
| --- | --- | --- | --- | --- | --- |
| c1csc(-c2ccc(-c3cccs3)s2)c1 | PH5CH8 | steatosis, inhibitor, high-content imaging |  |  | ~0.1 µM |
